Published values collected from several papers.
Each numbered part is a random draw from the data of one study; scales do not carry over between parts.

Sample 1 — technique: universal PBM; molecule type: double-stranded DNA, one strand shown; medium: in vitro; concentration: 600 nM; reading: higher = stronger binding
Target: Sal-like protein 4, full length isoform A (SALL4, Homo sapiens, UniProt Q9UJQ4, residues 1-1053)
Sequence of UniProt Q9UJQ4 (whole entry, looked up): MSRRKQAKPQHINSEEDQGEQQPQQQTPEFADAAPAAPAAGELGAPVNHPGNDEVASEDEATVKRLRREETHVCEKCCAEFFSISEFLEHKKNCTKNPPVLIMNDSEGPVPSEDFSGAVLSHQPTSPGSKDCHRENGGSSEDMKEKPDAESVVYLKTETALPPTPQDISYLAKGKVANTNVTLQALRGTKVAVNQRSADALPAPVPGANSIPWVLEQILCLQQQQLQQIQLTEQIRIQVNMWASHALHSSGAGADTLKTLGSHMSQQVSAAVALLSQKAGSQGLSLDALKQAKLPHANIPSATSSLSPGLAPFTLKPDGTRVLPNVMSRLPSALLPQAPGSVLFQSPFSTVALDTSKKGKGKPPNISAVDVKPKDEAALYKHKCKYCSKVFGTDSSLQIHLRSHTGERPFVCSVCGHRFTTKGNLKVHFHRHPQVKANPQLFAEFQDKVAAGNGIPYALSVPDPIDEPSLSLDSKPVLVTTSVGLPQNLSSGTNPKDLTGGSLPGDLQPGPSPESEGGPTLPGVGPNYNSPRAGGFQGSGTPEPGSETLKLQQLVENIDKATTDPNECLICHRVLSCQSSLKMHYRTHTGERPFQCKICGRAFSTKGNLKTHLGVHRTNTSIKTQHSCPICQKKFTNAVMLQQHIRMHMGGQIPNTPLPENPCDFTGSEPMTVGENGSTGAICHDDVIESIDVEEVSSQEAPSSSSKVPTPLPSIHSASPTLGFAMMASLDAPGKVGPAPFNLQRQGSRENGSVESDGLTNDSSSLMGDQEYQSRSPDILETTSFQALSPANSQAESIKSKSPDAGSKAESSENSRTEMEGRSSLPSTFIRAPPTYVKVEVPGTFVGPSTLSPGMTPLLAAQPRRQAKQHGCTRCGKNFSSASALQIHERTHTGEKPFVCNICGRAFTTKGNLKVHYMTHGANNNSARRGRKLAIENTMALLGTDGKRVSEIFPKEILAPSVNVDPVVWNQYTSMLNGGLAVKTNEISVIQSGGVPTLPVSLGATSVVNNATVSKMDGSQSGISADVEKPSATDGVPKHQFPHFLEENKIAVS
Setting: 8-mer, flanks averaged, mean of replicates
For `CCTGAATC`, the E-score was 0.0889.
For `AATCTCAT`, the E-score was 0.251.
For `TGGCAACA`, the E-score was 0.116.
The E-score of `ACGGGTAC` is reported as -0.276.
`CAGGTTCG` gave an E-score of -0.0822.
With `CTACTCCC` the E-score was -0.011.
`CTTTTCAC` gave an E-score of 0.129.
For `GCGGCTAC`, the E-score was -0.234.
With `ACCCTGCG` the E-score was -0.196.
`ACGTTTCC` gave an E-score of -0.106.
`AGGCTCCC` gave an E-score of -0.331.
The E-score of `GCTTCGAA` is reported as -0.181.
`TGAAAAAA` has an E-score of 0.321.
For `AGCGACAG`, the E-score was -0.0967.
The E-score of `CCATCATA` is reported as 0.195.
With `AAAGGCAA` the E-score was 0.168.
With `ACGCTTAG` the E-score was -0.0923.
`AAATGCGG` has an E-score of -0.103.
With `CTACGGTA` the E-score was -0.103.
With `ACAGAGCG` the E-score was -0.0269.
With `CAGAACGG` the E-score was -0.152.
With `CCCTAGTA` the E-score was -0.0122.
`GCTCTGCA` gave an E-score of -0.117.
For `GCGCGCCC`, the E-score was -0.315.
With `AAGCGGCA` the E-score was -0.137.

Sample 2 — technique: RNA Bind-n-Seq; molecule type: RNA; medium: in vitro; concentration: 200 nM; setting: whole 134-nt RNA, ends assumed; together with: 150 mM LiCl; baseline: input library; reading: higher = stronger binding; each molecule: 7-deaza-guanosine replaces G
Target: Ras GTPase-activating protein-binding protein 1, full length (G3BP1, Homo sapiens, UniProt Q13283)
Sequence of UniProt Q13283 (whole entry, looked up): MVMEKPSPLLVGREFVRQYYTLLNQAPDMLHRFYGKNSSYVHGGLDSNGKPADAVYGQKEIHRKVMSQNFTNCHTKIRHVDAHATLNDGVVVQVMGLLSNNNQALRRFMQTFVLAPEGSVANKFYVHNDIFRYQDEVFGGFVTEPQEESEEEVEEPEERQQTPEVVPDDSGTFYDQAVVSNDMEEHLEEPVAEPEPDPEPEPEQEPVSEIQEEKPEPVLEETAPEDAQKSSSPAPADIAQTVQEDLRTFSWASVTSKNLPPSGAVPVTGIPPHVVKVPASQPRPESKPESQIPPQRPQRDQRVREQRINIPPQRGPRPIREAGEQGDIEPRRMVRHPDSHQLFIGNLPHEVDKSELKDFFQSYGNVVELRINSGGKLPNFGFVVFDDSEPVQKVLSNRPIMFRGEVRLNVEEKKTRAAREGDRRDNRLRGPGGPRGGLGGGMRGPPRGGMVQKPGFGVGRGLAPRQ
`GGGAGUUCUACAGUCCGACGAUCCUCAAGUCCUGUGCUACACAUCGUAUGUACCGAAUCGGGUUGGGUUGGGGUUGGAAAGUAUUAUGUUACGCCGUUCGGAUCUGCACUUCCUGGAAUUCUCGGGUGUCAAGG` gave a log2 enrichment of 0.337.
With `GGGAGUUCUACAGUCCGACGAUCUGGUUUUGGUGCCUGGCAUCGAAGAUGGUGUGUUCUUUCUGGAAACUGUAUAUCUUAUUGGACUUAUCCAGAUGAUGAGAAACGCAAGGUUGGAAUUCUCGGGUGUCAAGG` the log2 enrichment was -1.27.
`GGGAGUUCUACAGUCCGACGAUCAAGUCCUGUGCUACACAUCGUAUGUACCGAAUCGGGUUUGGGUUUGGGAAAAAGGGAAAGUAUUAUGUUACGCCGUUCGGAUCUGCACUUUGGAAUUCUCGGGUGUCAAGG` has a log2 enrichment of -0.715.
With `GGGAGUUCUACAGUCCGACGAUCCUCAAGUCCUGUGCUACACAUCGUAUGUACCGAAUCGGAGGAGGAAAAAAAGGAAAGUAUUAUGUUACGCCGUUCGGAUCUGCACUUCCAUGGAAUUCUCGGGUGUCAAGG` the log2 enrichment was -0.816.
With `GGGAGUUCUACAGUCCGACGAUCCAAGUCCUGUGCUACACAUCGUAUGUACCGAAUCGGUGGAAAAAAAGGAAAAAGGAAAGUAUUAUGUUACGCCGUUCGGAUCUGCACUUCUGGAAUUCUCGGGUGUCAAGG` the log2 enrichment was -1.08.
With `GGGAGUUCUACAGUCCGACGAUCUGGAUCUUGGAGGGACCAACUUCCGUGUGCUUUGGGUGAAAGUAACGGACAAUGGGCUCCAGAAGGUGGAGAUGGAGAAUCAGAUCUAUGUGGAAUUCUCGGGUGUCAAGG` the log2 enrichment was -0.465.
The log2 enrichment of `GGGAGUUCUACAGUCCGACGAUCAAGUCCUGUGCUACACAUCGUAUGUACCGAAUCGGGAAAGGGGAAAGGGAAAGGGGAAAGUAUUAUGUUACGCCGUUCGGAUCUGCACUUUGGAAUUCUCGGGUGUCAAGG` is reported as 0.577.
With `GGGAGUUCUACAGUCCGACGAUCCCUCAAGUCCUGUGCUACACAUCGUAUGUACCGAAUCGGGGAGGGAGGGAGGGAAAGUAUUAUGUUACGCCGUUCGGAUCUGCACUUCCAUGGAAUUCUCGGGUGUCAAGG` the log2 enrichment was -0.449.

Sample 3 — technique: protein binding microarray; molecule type: double-stranded DNA, one strand shown; medium: in vitro; concentration: not given; baseline: not given; reading: higher = stronger binding
Target: Histone acetyltransferase KAT6A, both winged helices, GST fusion (KAT6A, Homo sapiens, UniProt Q92794, residues 1-181)
Setting: 8-mer, flanks averaged, mean of 2 arrays, mostly near background
Target sequence (chain): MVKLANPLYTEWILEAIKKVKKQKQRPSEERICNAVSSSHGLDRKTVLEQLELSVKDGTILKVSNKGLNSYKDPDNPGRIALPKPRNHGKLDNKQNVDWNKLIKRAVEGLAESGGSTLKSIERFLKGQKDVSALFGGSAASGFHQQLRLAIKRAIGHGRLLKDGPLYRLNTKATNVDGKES
`AGTAAGTC` gave an E-score of -0.0619.
For `CCGTCCTC`, the E-score was 0.0863.
For `ACCGATTG`, the E-score was 0.0649.
The E-score of `AGAGACCT` is reported as -0.121.
`ATGATTTC` gave an E-score of -0.0301.
The E-score of `GAGGGTTA` is reported as -0.0922.
`CAATCGGC` has an E-score of 0.111.
With `ACTCATCG` the E-score was 0.0718.
The E-score of `AACCTAAT` is reported as -0.037.
For `AGAGGTAG`, the E-score was -0.292.
`ATAGAAAC` has an E-score of 0.00929.
`CGAGTGGC` gave an E-score of -0.00995.
`CAACCTAC` has an E-score of -0.084.
With `AAAAACTG` the E-score was -0.0959.
For `ATGCTAAT`, the E-score was -0.0943.
For `GCCCGGCC`, the E-score was 0.233.
`CGATTACG` has an E-score of 0.0408.
`AATCGTAT` gave an E-score of -0.0629.

Sample 4 — technique: RNA Bind-n-Seq; molecule type: RNA; medium: in vitro; concentration: not given; baseline: input RNA pool; reading: higher = stronger binding
Target: RING finger protein unkempt homolog, zinc fingers 1-6, GST-SBP tag (UNK, Homo sapiens, UniProt Q9C0B0, residues 30-357)
Sequence of UniProt Q9C0B0 (30-357, looked up): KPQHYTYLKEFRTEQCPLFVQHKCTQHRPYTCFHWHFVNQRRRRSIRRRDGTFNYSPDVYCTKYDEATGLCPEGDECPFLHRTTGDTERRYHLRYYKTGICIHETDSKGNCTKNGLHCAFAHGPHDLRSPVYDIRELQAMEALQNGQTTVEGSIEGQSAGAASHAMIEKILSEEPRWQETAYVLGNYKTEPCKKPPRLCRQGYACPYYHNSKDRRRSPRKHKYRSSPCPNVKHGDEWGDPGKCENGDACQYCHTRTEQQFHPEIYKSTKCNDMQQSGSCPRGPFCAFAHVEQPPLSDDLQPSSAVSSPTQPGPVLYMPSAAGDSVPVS
Setting: RNA with constant flanks, human-mouse chimeric sites, ends assumed
`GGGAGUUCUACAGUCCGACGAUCUUUCUACUGCAGCAAACGAUGCUAAGAAUUAAGGAUCCUAAGAAGUCACUGGAUUUUUAUACGAGGGUUCUUGGACUGACCCUCCUGCAAAAAUGUGACUUCCCUGCUAUGAAGUUCUCGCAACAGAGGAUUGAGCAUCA` gave a bound/input enrichment of 0.152 ratio.
`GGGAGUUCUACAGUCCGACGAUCCAGUCCCCGUGUCCCAGUGCAGGACGAGAACAUGGACAACUCAAAGCGGCCCUUUCUUUGUAGUUCUUGAUUCUCGAAAUGUGCUAUUAUUGUUUGUCUUUUUUUUUUUUUUUUUAAAGACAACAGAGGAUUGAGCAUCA` gave a bound/input enrichment of 0.689 ratio.
With `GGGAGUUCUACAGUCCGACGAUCUUGCUACUGACUCCCUGGGUCAAGUUCCUGUGGGAAUCAUACAGGCAGUGUUUGGACCUUCUUAGAAACAAUUCUAGAGUAGAGCGCCUGUACCAUGAUAUCGCCCAACAAGCUUUCAAACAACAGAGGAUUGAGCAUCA` the bound/input enrichment was 0.233 ratio.
With `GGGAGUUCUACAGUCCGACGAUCGUACUGCAGCAGCAGGGCAAGCUGCAGGAAGCUCUGAUGCAUUAUAAGGAGGCUAUUCGAAUCAGUCCUACAUUUGCUGAUGCCUACUCUAAUAUGGGAAACACUCUAAAGGAGAUGCAGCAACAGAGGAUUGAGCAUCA` the bound/input enrichment was 0.291 ratio.
With `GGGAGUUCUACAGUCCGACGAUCGGACAUCUGUCAAAUUGUUAUGUUCCUGUGAAACAAGUGAACACUCUGAUACACUUCAUCUGCUUGUACAUUUAACUGAUAGAGAAACAGAAAUCUAUUAAUCCAAGCAAUGUGUCACUUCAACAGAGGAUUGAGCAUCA` the bound/input enrichment was 0.147 ratio.
With `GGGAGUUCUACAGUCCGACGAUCAAAGAACCUCUCUCUGAUGAAGAUGAGGAAGACAAUGAUGAUGUUGAACCCAUUUCUGAAUUUAGAUUUGUGCCCAGUGAUAAGUCAGCAUUGGAGGCGAUGUUCACAGCAAUGUGUGAGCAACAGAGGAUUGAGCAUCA` the bound/input enrichment was 1.46 ratio.
The bound/input enrichment of `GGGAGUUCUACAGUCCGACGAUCCCAAUUGUGGAGCAGUACUUGAAGACAAAGAAAAAUUCUAAUAAUUUAAUCAUCAAGUACAUUAGCUGCCGCCUGCUGACACUCAUCAUUAUACUGUUGGCAUGUAUCUACUUGAGCUAUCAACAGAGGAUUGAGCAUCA` is reported as 0.22 ratio.
With `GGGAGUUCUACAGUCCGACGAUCGGCCUGGGACCGUCCUGGCUAGUGCAAAAUAGCGGCAGUGGAGGCUCGAGAGGAAAGUUUGUUAGUGGAGGCAGUGGUAGAGGCCGUCAUGUACGGUCCUUUACUCGUAAAAAUCCUUCUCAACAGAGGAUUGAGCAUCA` the bound/input enrichment was 0.281 ratio.

For quick reference, copied from above (sample 3):
For `GCCCGGCC`, the E-score was 0.233.
With `ACTCATCG` the E-score was 0.0718.
`ATAGAAAC` has an E-score of 0.00929.
`CGAGTGGC` gave an E-score of -0.00995.
`CGATTACG` has an E-score of 0.0408.
`CAATCGGC` has an E-score of 0.111.
